Results collected from several papers.
Each numbered part is a random draw from the data of one study; scales do not carry over between parts. Positions count from the first letter of the parent shown.
UniProt Q9C966, sequence (whole entry, looked up): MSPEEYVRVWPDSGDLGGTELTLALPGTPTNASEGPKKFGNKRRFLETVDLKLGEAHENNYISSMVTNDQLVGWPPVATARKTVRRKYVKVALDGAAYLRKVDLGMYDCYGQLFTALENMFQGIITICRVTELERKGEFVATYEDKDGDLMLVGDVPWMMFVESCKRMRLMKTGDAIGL
UniProt Q8H174, sequence (whole entry, looked up): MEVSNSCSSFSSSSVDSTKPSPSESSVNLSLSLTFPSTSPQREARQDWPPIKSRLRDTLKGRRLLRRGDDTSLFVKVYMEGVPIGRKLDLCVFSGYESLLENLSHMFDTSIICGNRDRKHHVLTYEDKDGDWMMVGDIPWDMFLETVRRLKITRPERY
UniProt Q9XED8, sequence (whole entry, looked up): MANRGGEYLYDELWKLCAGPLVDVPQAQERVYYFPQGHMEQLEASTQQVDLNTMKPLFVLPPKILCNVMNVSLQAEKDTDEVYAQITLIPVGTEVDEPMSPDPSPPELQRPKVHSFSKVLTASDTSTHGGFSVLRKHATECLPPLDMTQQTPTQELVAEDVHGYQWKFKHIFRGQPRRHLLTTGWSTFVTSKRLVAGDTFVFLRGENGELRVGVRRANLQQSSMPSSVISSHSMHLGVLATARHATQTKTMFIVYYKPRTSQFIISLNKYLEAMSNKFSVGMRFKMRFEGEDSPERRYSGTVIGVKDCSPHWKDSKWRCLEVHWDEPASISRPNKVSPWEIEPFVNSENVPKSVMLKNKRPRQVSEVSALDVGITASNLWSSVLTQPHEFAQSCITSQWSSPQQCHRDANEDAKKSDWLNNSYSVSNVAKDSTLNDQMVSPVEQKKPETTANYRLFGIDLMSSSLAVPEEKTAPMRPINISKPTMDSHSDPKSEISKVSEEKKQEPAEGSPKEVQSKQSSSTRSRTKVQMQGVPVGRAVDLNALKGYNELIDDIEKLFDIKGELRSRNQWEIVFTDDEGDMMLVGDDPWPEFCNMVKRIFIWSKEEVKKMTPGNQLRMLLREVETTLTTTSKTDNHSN
UniProt Q38831, sequence (whole entry, looked up): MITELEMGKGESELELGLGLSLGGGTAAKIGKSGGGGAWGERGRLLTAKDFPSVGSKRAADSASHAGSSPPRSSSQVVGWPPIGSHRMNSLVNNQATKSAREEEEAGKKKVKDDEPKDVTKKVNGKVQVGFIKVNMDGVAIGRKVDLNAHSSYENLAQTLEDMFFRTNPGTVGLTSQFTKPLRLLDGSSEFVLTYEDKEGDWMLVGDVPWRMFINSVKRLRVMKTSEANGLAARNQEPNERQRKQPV
UniProt Q8LAL2, sequence (whole entry, looked up): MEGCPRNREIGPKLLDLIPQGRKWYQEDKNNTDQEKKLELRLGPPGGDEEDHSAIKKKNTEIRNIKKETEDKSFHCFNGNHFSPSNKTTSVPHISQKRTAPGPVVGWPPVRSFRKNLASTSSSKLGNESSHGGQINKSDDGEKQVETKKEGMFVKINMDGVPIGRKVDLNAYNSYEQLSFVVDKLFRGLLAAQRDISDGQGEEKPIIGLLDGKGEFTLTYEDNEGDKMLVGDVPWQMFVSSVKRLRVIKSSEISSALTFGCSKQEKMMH

Block 1 — Sequence: B1 (IAA1); method: two-hybrid; reading: higher = firmer interaction
B1: IAA1 (Arabidopsis thaliana, UniProt P49677); chain MEVTNGLNLKDTELRLGLPGAQEEQQLELSCVRSNNKRKNNDSTEESAPPPAKTQIVGWPPVRSNRKNNNNKNVSYVKVSMDGAPYLRKIDLKMYKNYPELLKALENMFKFTVGEYSEREGYKGSGFVPTYEDKDGDWMLVGDVPWDMFSSSCQKLRIMKGSEAPTAL
| partner | notes | baseline | positive tests |
| --- | --- | --- | --- |
| IAA15 (Arabidopsis thaliana, UniProt Q9C966) |  | out of 4 tests | 2 |
| IAA31 (Arabidopsis thaliana, UniProt Q8H174) |  | out of 4 tests | 2 |
| IAA13 (Arabidopsis thaliana, UniProt Q38831) |  | out of 2 tests | 0 |
| IAA26 (Arabidopsis thaliana, UniProt Q8LAL2) |  | out of 2 tests | 0 |
| ARF9 519-638 (Arabidopsis thaliana, UniProt Q9XED8) | weak activation fusion | out of 4 tests | 2 |

Block 2 — target: CCNE1, cyclin fold, Cln2 fusion (human); method: yeast growth competition, sequencing; matrix: yeast; notes: strong parent motif; baseline: not given; reading: higher = stronger binding
Starting sequence: CCP110 docking peptide (human); EKVKRRLDLDIDG; partner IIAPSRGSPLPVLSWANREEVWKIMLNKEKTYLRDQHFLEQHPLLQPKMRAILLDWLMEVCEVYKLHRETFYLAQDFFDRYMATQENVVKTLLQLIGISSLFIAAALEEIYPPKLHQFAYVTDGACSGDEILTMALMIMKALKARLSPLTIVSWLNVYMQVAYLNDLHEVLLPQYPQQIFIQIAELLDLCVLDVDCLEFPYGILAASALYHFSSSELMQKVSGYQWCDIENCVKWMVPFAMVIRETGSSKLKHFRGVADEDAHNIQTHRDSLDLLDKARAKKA
| Variant | normalised enrichment score |
| --- | --- |
| G13A | 2.78 |
| L9F | 6.53 |
| L7A | -0.121 |
| R5A L7A | 0.194 |
| R6A | 0.753 |
| E1A | 2.23 |
| D12A | 1.78 |
| R5K L9F | 4.6 |

Block 3 — Variant: G71T; method: DHFR PCA, deep sequencing; matrix: yeast; baseline: wild-type fitted maximum; reading: higher = stronger binding
Target: ABI1, truncated, D143A, DHFR fusion (Arabidopsis thaliana)
Notes: methotrexate growth selection, single substitutions
Starting sequence: PYL1, truncated, DHFR fusion (Arabidopsis thaliana); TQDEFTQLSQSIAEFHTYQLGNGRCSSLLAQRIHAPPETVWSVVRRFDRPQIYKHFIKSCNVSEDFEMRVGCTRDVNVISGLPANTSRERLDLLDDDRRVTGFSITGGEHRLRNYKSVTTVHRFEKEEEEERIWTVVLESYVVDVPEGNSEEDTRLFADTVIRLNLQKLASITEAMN; partner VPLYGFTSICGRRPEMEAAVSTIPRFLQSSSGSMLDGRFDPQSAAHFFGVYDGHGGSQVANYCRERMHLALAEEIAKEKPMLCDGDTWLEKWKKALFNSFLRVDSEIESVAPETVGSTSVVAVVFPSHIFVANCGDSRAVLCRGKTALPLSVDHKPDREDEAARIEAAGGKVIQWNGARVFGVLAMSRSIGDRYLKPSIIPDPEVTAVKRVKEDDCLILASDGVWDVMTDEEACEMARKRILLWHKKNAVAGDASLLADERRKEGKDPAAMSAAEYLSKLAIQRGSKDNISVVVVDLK
| with | relative binding score |
| --- | --- |
| (+)-ABA 0.39 µM | -15.1% |
| (+)-ABA 200 µM | 44% |
| (+)-ABA 710 µM | 60.4% |
| (+)-ABA 17 µM | -3.24% |
| (+)-ABA 1.4 µM | 3.34% |
| (+)-ABA 58 µM | 10.2% |

Single results of other studies
| Compound | target | read-out | method | concentration | measurement | result |
| --- | --- | --- | --- | --- | --- | --- |
| COc1ccc2cc(OCC3(C(=O)O)CN(C(=O)c4ccc(F)cc4)C3)ccc2c1 | Hepatocyte growth factor receptor (MET, Homo sapiens, UniProt P08581) | cell-free assay | competition with immobilised ligand | 1 µM | remaining binding | 100% |

Some of these lines once more (single results of other studies):
| Compound | target | read-out | method | concentration | measurement | result |
| --- | --- | --- | --- | --- | --- | --- |
| COc1ccc2cc(OCC3(C(=O)O)CN(C(=O)c4ccc(F)cc4)C3)ccc2c1 | Hepatocyte growth factor receptor (MET, Homo sapiens, UniProt P08581) | cell-free assay | competition with immobilised ligand | 1 µM | remaining binding | 100% |
